Assay results gathered from unrelated publications.
“And” joins repeats or separate records; there may be more than shown. ± gives the spread as reported.

| Structure (SMILES) | tested on | test | test system | setting | scale | measurement | value |
| --- | --- | --- | --- | --- | --- | --- | --- |
| C[C@H]1CN(c2n[nH]c3nc(N[C@H]4CC[C@H](NS(=O)(=O)CCC(F)(F)F)CC4)ncc23)CCO1 | ACAD10 (Homo sapiens, UniProt Q6JQN1) | inhibitor, Kinobeads competition profiling |  | 0.16 µM | reference: vehicle | relative abundance | 1.14 |
| CC(C)(COP(=O)(O)OP(=O)(O)OCC1OC(n2cnc3c(N)ncnc32)C(O)C1OP(=O)(O)O)C(O)C(=O)NCCC(=O)NCCSC(=O)CC(O)(CC(=O)O)C(=O)O (centres unmarked) | gltA (Thermoplasma acidophilum, UniProt P21553, D318G) | citryl-CoA hydrolysis, substrate |  | saturating, pH 8, 20 °C |  | hydrolysis rate constant | 0.004 s⁻¹ |
| COc1cc(N)c(Cl)cc1C(=O)NC1CN2CCC1CC2 (centres unmarked) | Mas-related G-protein coupled receptor member X4 (Homo sapiens, UniProt Q96LA9) | β-arrestin recruitment, TANGO luminescence, item: MRGPRX4 |  | concentration not given | reference: basal luminescence | log2 fold change | 0.38 |
| O=C(O)CCC(=O)C(=O)O | HIF1AN (Homo sapiens, UniProt Q9NWT6, E105A) | cosubstrate |  | tunnel mutant E105A |  | KI over Km | ~20 fold |
| COc1cc2c(Oc3ccc4[nH]c(C)cc4c3F)ccnc2cc1OCC1(N)CC1 |  |  | paediatric recurrent refractory sarcoma | 8 mg |  | Leukopenia incidence | 0% |
| O=C(O)Cc1c[nH]cn1 | SLC6A6 (Homo sapiens, UniProt P31641, Y138A) | binding, microscale thermophoresis |  | 31.3 µM, room temperature, added: 50 nM labelled protein | higher = more binding | normalised MST signal | 0.105 |
| COc1ncccc1-c1cnn2ccc(N3CCN(C(=O)OC(C)C)CC3)nc12 | Cyclin-dependent kinase 4, with cyclin D1 (CDK4, Homo sapiens, UniProt P11802) | KINOMEscan binding |  | 1 µM | reference: untreated control | remaining binding | 64% |
| CN(C(=O)n1cnc(-c2ccc[n+]([O-])c2)c1)C1CCCCC1 | AMPA receptor, rat | binding |  | 10 µM, added: [3H]AMPA |  | inhibition | 2% |
| CC(=O)c1cnc2ccc(-c3cc(Cl)c(O)c(Cl)c3)nc2c1N[C@H]1CC[C@H](CN(C)C)CC1 | Probable receptor-like protein kinase At4g39110 (Arabidopsis thaliana, UniProt Q9T020) | binding, SPR |  | concentration not given | reference: FER | fold change of KD | > 100 |
| COc1ccc(N2C(=O)N(c3c(C)cccc3Cl)Cc3cnc(Nc4ccc(C5CCN(C)CC5)cc4OC)nc32)nc1 | CDK4 (Homo sapiens, UniProt P11802) | kinase activity, inhibitor |  | 0.5 µM, complex with -CYCLIND |  | inhibition | 7% |
| CC1(CCl)CN1S(=O)(=O)c1ccccc1 (centres unmarked) | UCHL1 (Homo sapiens, UniProt P09936) | covalent, intact protein LC-MS |  | 12.5 µM |  | labelling | 11.5% |
| O=C(Nc1ccccc1)[C@@H]1CS[C@H]2CS[C@H](CS)N21 | sfhI (Serratia fonticola, UniProt Q9RMI1) | activity class |  | concentration not given |  | activity | inactive |
| C[C@@H](NC(=O)[C@@H](N)Cc1ccc(O)cc1)C(=O)NCC(=O)N(C)[C@@H](Cc1ccccc1)C(=O)NCCO | Oprm1 (Mus musculus, UniProt P42866) | agonist | mouse spinal cord membranes | 562 nM | reference: basal binding | GTPγS binding | 0.58% and 1.92% and -1.89% and 3.13% |
| Brc1ccc(COc2ccccc2CNCc2ccccc2)cc1 | aacA-aphD, AAC(6')-Ie domain (Staphylococcus aureus, UniProt P0A0C1) | neomycin acetylation, inhibitor |  | added: neomycin |  | highest concentration without inhibition | > 200 µM |
| O=C(O)COP(=O)(O)O | TPI1 (Saccharomyces cerevisiae, UniProt P00942, Y208A) | enzyme activity, competitive inhibitor, GPDH/NADH-coupled |  | pH 7.5, 25 °C, ionic strength 0.1 NaCl, added: glyceraldehyde 3-phosphate substrate | reference: mutant over wild type | Ki ratio | 67 |
| [2H]c1c([2H])c([C@]2([2H])CCCN2C(=O)C(C)(C)Oc2ccc3cn[nH]c3c2)c([2H])c([2H])c1C([2H])([2H])[2H] | EPHB2 (Homo sapiens, UniProt P29323) | KINOMEscan |  | 1 µM | reference: DMSO control | remaining binding | 100% |
| CCC[N+]1(C)CCN(c2ccccc2)CC1.[I-] | Nicotinic acetylcholine receptor alpha1/beta1/epsilon/delta (Mus musculus, UniProt P02716+P04756+P09690+P20782) | ion current, inhibitor, two-electrode voltage clamp | Xenopus oocytes | 30 µM, after co-application, unit not given, added: ACh 30 µM | reference: ACh alone | ACh response | 0.515 ± 0.185 |

Excerpt of the above:
| Structure (SMILES) | tested on | test | test system | setting | scale | measurement | value |
| --- | --- | --- | --- | --- | --- | --- | --- |
| [2H]c1c([2H])c([C@]2([2H])CCCN2C(=O)C(C)(C)Oc2ccc3cn[nH]c3c2)c([2H])c([2H])c1C([2H])([2H])[2H] | EPHB2 (Homo sapiens, UniProt P29323) | KINOMEscan |  | 1 µM | reference: DMSO control | remaining binding | 100% |
| CCC[N+]1(C)CCN(c2ccccc2)CC1.[I-] | Nicotinic acetylcholine receptor alpha1/beta1/epsilon/delta (Mus musculus, UniProt P02716+P04756+P09690+P20782) | ion current, inhibitor, two-electrode voltage clamp | Xenopus oocytes | 30 µM, after co-application, unit not given, added: ACh 30 µM | reference: ACh alone | ACh response | 0.515 ± 0.185 |
